Results collected from several papers.
Every numbered part comes from another study and shows a few of its results, in no order. Several values in a cell are separate wells, animals, samples, runs or records.
Sequence of UniProt Q16584 (whole entry, looked up): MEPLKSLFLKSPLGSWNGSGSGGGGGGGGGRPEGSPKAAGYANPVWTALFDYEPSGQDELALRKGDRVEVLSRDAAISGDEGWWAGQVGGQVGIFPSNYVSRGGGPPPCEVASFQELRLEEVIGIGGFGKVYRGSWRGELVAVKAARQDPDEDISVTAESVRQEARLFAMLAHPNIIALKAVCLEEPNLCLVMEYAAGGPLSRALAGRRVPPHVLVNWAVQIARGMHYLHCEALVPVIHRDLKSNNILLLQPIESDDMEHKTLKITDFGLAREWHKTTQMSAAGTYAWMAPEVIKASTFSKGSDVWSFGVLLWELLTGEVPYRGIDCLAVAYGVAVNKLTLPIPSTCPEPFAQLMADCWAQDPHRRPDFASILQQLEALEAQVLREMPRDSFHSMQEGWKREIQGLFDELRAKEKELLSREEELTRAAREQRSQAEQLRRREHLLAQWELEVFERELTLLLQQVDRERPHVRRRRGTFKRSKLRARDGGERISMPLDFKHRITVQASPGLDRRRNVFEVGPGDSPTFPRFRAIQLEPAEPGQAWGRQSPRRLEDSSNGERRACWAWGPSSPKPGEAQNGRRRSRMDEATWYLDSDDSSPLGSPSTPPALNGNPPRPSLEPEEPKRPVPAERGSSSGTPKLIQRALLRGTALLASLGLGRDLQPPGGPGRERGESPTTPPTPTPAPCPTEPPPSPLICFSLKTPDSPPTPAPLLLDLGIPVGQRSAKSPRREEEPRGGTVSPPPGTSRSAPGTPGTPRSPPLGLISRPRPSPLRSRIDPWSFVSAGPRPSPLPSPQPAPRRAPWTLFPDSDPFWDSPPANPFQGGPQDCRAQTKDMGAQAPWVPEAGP
Sequence of UniProt Q9NYL2 (whole entry, looked up): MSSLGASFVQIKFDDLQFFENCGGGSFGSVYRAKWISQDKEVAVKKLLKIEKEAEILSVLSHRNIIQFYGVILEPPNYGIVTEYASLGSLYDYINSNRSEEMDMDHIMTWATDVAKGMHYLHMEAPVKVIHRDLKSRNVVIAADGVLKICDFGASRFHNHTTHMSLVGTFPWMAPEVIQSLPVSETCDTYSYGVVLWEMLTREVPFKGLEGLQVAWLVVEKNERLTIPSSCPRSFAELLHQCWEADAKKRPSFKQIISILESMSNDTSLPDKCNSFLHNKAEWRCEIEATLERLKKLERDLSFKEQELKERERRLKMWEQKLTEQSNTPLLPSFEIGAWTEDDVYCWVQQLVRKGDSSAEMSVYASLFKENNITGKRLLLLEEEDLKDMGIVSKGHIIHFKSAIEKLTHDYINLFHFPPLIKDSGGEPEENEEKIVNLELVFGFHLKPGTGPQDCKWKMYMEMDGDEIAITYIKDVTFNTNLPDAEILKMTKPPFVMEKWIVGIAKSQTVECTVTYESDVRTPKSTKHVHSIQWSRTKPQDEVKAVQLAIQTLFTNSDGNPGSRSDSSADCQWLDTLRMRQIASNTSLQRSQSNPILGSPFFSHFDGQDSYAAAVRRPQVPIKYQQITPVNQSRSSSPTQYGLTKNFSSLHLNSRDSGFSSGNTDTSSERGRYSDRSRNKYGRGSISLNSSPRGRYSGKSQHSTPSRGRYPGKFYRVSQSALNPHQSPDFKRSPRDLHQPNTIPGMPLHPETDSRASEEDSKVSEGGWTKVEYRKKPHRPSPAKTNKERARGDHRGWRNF
Sequence of UniProt Q8N5S9 (whole entry, looked up): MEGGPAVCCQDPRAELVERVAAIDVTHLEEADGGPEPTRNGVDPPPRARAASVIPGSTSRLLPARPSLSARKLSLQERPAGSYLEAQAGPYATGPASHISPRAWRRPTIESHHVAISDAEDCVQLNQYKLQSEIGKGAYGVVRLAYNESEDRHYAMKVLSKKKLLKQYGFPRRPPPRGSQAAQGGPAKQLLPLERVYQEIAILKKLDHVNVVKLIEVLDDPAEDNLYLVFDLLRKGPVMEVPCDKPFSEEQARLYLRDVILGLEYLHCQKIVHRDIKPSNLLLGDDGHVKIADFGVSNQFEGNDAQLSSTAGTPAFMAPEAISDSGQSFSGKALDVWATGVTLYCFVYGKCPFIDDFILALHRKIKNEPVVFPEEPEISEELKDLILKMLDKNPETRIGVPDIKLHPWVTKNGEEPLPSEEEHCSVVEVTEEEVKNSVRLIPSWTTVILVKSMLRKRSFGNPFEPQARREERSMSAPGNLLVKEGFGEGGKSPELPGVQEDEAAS
Sequence of UniProt P51817 (whole entry, looked up): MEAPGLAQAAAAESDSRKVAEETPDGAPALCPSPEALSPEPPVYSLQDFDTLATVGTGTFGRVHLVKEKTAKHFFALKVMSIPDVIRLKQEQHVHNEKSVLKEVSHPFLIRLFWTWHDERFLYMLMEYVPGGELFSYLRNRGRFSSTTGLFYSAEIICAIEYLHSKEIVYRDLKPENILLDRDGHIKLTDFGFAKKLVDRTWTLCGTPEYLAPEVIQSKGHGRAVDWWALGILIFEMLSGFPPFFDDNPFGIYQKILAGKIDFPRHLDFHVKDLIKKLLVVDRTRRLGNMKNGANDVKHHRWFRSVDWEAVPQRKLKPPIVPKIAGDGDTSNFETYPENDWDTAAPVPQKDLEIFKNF
Sequence of UniProt Q99640 (whole entry, looked up): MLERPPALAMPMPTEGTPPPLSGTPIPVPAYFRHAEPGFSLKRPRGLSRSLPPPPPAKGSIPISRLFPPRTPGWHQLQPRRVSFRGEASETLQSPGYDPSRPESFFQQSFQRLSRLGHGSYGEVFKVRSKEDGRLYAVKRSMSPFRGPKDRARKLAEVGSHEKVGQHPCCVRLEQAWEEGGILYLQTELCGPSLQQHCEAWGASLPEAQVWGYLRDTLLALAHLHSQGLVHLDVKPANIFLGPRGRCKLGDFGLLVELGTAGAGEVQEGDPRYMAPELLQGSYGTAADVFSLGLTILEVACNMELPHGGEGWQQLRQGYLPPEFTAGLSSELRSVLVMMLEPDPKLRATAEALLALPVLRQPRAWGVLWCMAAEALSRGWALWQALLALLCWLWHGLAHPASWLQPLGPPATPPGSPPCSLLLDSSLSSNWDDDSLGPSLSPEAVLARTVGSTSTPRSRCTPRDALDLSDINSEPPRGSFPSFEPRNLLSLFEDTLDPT
Sequence of UniProt P49137 (whole entry, looked up): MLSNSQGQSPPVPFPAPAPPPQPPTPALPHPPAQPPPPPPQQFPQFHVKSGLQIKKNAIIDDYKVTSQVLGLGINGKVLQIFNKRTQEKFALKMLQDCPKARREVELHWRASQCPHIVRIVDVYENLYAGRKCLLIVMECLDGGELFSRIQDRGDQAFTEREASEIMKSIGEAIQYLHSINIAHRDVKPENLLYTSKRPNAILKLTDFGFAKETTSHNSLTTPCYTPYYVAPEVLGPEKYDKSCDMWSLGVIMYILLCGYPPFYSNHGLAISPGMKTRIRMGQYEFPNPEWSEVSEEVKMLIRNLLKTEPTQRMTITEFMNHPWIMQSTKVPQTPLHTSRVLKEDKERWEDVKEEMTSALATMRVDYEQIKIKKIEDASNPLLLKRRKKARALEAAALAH
Sequence of UniProt Q15831 (whole entry, looked up): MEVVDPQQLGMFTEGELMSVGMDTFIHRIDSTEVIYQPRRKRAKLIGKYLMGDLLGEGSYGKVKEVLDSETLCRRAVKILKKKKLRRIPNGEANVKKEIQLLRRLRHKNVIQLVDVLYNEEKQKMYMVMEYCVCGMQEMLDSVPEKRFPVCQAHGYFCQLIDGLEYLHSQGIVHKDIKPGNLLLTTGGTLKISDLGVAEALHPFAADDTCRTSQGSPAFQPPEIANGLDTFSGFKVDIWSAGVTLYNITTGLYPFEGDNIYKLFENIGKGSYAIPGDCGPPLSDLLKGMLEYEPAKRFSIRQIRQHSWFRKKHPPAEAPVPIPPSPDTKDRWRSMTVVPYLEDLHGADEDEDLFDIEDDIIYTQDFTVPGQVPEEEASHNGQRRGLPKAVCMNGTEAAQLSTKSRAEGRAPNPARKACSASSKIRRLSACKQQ
Sequence of UniProt P22607 (whole entry, unmodified, looked up): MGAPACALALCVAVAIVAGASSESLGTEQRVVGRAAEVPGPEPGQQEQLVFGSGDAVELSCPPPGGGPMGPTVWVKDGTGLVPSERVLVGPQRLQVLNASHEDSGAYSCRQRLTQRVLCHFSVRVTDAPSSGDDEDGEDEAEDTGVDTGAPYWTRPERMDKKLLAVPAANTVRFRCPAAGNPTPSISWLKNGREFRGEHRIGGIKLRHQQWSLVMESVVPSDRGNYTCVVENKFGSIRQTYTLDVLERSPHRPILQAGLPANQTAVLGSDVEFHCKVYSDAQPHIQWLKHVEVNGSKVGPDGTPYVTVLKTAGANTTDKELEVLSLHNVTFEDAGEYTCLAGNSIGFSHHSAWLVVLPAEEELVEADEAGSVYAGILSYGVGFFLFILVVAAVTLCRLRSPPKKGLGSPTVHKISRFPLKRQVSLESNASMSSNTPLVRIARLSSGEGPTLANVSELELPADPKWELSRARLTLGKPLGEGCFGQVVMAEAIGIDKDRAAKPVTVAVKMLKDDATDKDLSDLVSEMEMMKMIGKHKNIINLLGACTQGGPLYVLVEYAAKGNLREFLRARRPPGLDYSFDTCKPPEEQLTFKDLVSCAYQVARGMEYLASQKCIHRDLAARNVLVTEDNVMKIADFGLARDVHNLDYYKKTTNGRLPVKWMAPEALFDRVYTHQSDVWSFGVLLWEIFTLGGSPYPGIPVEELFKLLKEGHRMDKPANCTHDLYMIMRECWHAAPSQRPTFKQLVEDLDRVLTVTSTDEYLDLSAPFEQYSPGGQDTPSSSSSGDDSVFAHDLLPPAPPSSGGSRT
Sequence of UniProt Q9HBY8 (whole entry, looked up): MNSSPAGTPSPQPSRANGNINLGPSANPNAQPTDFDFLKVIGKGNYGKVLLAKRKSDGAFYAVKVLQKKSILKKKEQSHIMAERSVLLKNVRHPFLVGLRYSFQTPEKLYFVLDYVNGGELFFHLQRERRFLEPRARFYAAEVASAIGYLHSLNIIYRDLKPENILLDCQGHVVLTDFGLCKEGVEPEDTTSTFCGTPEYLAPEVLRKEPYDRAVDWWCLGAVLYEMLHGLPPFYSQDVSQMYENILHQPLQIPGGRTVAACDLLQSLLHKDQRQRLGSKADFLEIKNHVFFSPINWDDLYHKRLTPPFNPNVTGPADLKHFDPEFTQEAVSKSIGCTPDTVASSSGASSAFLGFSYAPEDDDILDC

Series 1
Cell line: A-375
Concentration: 100 µM
Time: 36 h
| SMILES | viability |
| --- | --- |
| Nc1nc(=O)[nH]cc1F | 114% |
| CCOc1cc(CC(=O)N[C@@H](CC(C)C)c2ccccc2N2CCCCC2)ccc1C(=O)O | 48.2% |
| NCCCC[C@H](NC(=O)[C@@H]1CCCN1C(=O)[C@@H]1CSSC[C@H](N)C(=O)N[C@@H](Cc2ccccc2)C(=O)N[C@@H](Cc2ccccc2)C(=O)N[C@@H](CCC(N)=O)C(=O)N[C@@H](CC(N)=O)C(=O)N1)C(=O)NCC(N)=O | 88.6% |
| C[C@]12C=CC(=O)C=C1CC[C@@H]1[C@@H]2C(=O)C[C@@]2(C)[C@H]1CC[C@]2(O)C(=O)CO | 110% |
| Cc1nc(Nc2ccc(F)cc2)nc(N2CCc3ccccc3C2C)c1C (centres unmarked) | 0.838% |
| CN1CCc2nc(C(=O)N[C@@H]3C[C@@H](C(=O)N(C)C)CC[C@@H]3NC(=O)C(=O)Nc3ccc(Cl)cn3)sc2C1 | 109% and 106% |
| CC(=O)NCCCS(=O)(=O)O | 118% |
| O=C1[C@H](CC[C@H](O)c2ccc(F)cc2)[C@@H](c2ccc(O)cc2)N1c1ccc(F)cc1 | 2.5% |
| Cc1c(-c2ccc(O)cc2)n(Cc2ccc(OCCN3CCCCCC3)cc2)c2ccc(O)cc12 | 2.28% |
| Cc1ccc(S(=O)(=O)NC(=O)NN2CC3CCC[C@@H]3C2)cc1 (stereo in doubt) | 90.3% |
| C[C@]12CC[C@@H]3c4ccc(O)cc4C[C@@H](CCCCCCCCC[S+]([O-])CCCC(F)(F)C(F)(F)F)[C@H]3[C@@H]1CC[C@@H]2O (some centres unmarked) | 91.1% |
| C[C@@H](c1ncncc1F)[C@](O)(Cn1cncn1)c1ccc(F)cc1F | 88.3% |
| O=c1ccc2ccccc2o1 | 105% |
| CCCC(=O)O[C@]1(C(=O)CO)CC[C@H]2[C@@H]3CCC4=CC(=O)CC[C@]4(C)[C@H]3[C@@H](O)C[C@@]21C | 106% |

Series 2
Target: Diamine acetyltransferase 1 (Homo sapiens, UniProt P21673)
Mode: inhibitor
Concentration: 10 µM
Baseline: control
Target sequence (P21673 1-171): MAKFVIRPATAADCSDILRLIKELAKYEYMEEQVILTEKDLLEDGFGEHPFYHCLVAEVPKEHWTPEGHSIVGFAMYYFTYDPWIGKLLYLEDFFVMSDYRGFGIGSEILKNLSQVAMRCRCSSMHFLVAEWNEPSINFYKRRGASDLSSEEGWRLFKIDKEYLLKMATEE
| Structure (SMILES) | remaining activity |
| --- | --- |
| CC(=O)OCCC(C)CCC=C(C)C (centres unmarked) | 82.2% |
| CCCCCCCCCCCCCCCCCC=O | 92.6% |
| NC(CO)C(=O)O (racemic) | 96.3% |
| CC(C)(O)[C@H]1CC[C@@](C)([C@H]2[C@@H](O)C[C@@]3(C)[C@@H]4C[C@H](O[C@@H]5O[C@H](CO)[C@@H](O)[C@H](O)[C@H]5O)[C@H]5C(C)(C)[C@@H](O[C@@H]6OC[C@@H](O)[C@H](O)[C@H]6O)CC[C@@]56C[C@@]46CC[C@]23C)O1 | 102% |
| OC[C@H]1O[C@H](OC[C@H]2OC(O)[C@H](O)[C@@H](O)[C@@H]2O)[C@H](O)[C@@H](O)[C@@H]1O (some centres unmarked) | 104% |
| CCCCCCCCCCCCCCCCCCO | 97.6% |
| C[C@@H]1OC(O)[C@H](O)[C@H](O)[C@H]1O (some centres unmarked) | 100% |
| CC1=C(/C=C/C(C)=C/C=C/C(C)=C/CO)C(C)(C)CCC1 | 102% |
| C/C=C(/C)C(=O)O | 102% |
| COc1cc([C@H]2Oc3c(OC)cc(CCCO)cc3[C@@H]2CO)ccc1O | 92.1% |

Series 3
SMILES: COc1ccc2c(c1)O[C@H](c1ccc(OC)c(OC)c1)C[C@@H]2NC(=O)C1(c2ccc3c(c2)OC(F)(F)O3)CC1
Observed: cell-free assay
Technique: competition with immobilised ligand
Concentration: 1 µM
| target | remaining binding |
| --- | --- |
| FLT3 (Homo sapiens, UniProt P36888, R834Q) | 100% |
| CHEK1 (Homo sapiens, UniProt O14757) | 100% |
| GSK3B (Homo sapiens, UniProt P49841) | 100% |
| ANKK1 (Homo sapiens, UniProt Q8NFD2) | 100% |
| CDK13 (Homo sapiens, UniProt Q14004) | 100% |
| MAP3K11 (Homo sapiens, UniProt Q16584) | 100% |
| LIM domain kinase 2 (LIMK2, Homo sapiens, UniProt P53671) | 100% |
| TRPM6 (Homo sapiens, UniProt Q9BX84) | 84% |
| CDK4 (Homo sapiens, UniProt P11802) | 96% |
| Ribosomal protein S6 kinase alpha-2, C-terminal kinase domain (RPS6KA2, Homo sapiens, UniProt Q15349) | 95% |
| PRKX (Homo sapiens, UniProt P51817) | 100% |
| NEK4 (Homo sapiens, UniProt P51957) | 86% |
| PKMYT1 (Homo sapiens, UniProt Q99640) | 100% |
| Tyrosine-protein kinase ABL1, phosphorylated (ABL1, Homo sapiens, UniProt P00519, Q252H) | 100% |
| FGFR3 (Homo sapiens, UniProt P22607, G697C) | 93% |
| CAMK1D (Homo sapiens, UniProt Q8IU85) | 100% |
| MAPKAPK2 (Homo sapiens, UniProt P49137) | 100% |
| STK11 (Homo sapiens, UniProt Q15831) | 100% |
| FLT3 (Homo sapiens, UniProt P36888, N841I) | 100% |
| MAP3K6 (Homo sapiens, UniProt O95382) | 81% |
| RIOK3 (Homo sapiens, UniProt O14730) | 100% |
| CSNK1G1 (Homo sapiens, UniProt Q9HCP0) | 100% |

Series 4
Compound: N#Cc1c(NC(=O)c2cccc3ccccc23)sc2c1CCCC2
Observed: enzyme activity
Mode: inhibitor
Concentration: 0.5 µM
Baseline: control
| target | remaining activity |
| --- | --- |
| CSNK1D (Homo sapiens, UniProt P48730) | 106% |
| TYRO3 (Homo sapiens, UniProt Q06418) | 101% |
| SIK2 (Homo sapiens, UniProt Q9H0K1) | 101% |
| FLT1 (Homo sapiens, UniProt P17948) | 84.4% |
| PAK6 (Homo sapiens, UniProt Q9NQU5) | 101% |
| JAK1 (Homo sapiens, UniProt P23458) | 108% |
| SGK2 (Homo sapiens, UniProt Q9HBY8) | 101% |
| EPHA6 (Homo sapiens, UniProt Q9UF33) | 93.4% |
| PRKCZ (Homo sapiens, UniProt Q05513) | 102% |
| CAMK1 (Homo sapiens, UniProt Q14012) | 108% |
| RPS6KA3 (Homo sapiens, UniProt P51812) | 99% |
| CLK2 (Homo sapiens, UniProt P49760) | 101% |
| PAK1 (Homo sapiens, UniProt Q13153) | 97.4% |
| MAP3K20 (Homo sapiens, UniProt Q9NYL2) | 93.2% |
| CLK1 (Homo sapiens, UniProt P49759) | 99.2% |
| TEC (Homo sapiens, UniProt P42680) | 111% |
| CAMKK1 (Homo sapiens, UniProt Q8N5S9) | 109% |
| SRPK1 (Homo sapiens, UniProt Q96SB4) | 102% |
| CSNK1E (Homo sapiens, UniProt P49674) | 102% |

A few entries again (series 1):
| SMILES | viability |
| --- | --- |
| C[C@]12C=CC(=O)C=C1CC[C@@H]1[C@@H]2C(=O)C[C@@]2(C)[C@H]1CC[C@]2(O)C(=O)CO | 110% |
| Cc1nc(Nc2ccc(F)cc2)nc(N2CCc3ccccc3C2C)c1C (centres unmarked) | 0.838% |
| CN1CCc2nc(C(=O)N[C@@H]3C[C@@H](C(=O)N(C)C)CC[C@@H]3NC(=O)C(=O)Nc3ccc(Cl)cn3)sc2C1 | 109% and 106% |
| CC(=O)NCCCS(=O)(=O)O | 118% |
| O=C1[C@H](CC[C@H](O)c2ccc(F)cc2)[C@@H](c2ccc(O)cc2)N1c1ccc(F)cc1 | 2.5% |
| Cc1c(-c2ccc(O)cc2)n(Cc2ccc(OCCN3CCCCCC3)cc2)c2ccc(O)cc12 | 2.28% |
| Cc1ccc(S(=O)(=O)NC(=O)NN2CC3CCC[C@@H]3C2)cc1 (stereo in doubt) | 90.3% |
| C[C@]12CC[C@@H]3c4ccc(O)cc4C[C@@H](CCCCCCCCC[S+]([O-])CCCC(F)(F)C(F)(F)F)[C@H]3[C@@H]1CC[C@@H]2O (some centres unmarked) | 91.1% |
